Assay results gathered from unrelated publications.
A part holds a random share of what one study measured. Changes are numbered by the printed parent chain.

Study 1 — method: universal PBM; form: double-stranded DNA, one strand shown; sample: in vitro; tested at: 600 nM; reading: higher = stronger binding; measurement: E-score
Target: Sal-like protein 4, full length isoform A (SALL4, Homo sapiens, UniProt Q9UJQ4, residues 1-1053)
Chain of UniProt Q9UJQ4 (whole entry, looked up): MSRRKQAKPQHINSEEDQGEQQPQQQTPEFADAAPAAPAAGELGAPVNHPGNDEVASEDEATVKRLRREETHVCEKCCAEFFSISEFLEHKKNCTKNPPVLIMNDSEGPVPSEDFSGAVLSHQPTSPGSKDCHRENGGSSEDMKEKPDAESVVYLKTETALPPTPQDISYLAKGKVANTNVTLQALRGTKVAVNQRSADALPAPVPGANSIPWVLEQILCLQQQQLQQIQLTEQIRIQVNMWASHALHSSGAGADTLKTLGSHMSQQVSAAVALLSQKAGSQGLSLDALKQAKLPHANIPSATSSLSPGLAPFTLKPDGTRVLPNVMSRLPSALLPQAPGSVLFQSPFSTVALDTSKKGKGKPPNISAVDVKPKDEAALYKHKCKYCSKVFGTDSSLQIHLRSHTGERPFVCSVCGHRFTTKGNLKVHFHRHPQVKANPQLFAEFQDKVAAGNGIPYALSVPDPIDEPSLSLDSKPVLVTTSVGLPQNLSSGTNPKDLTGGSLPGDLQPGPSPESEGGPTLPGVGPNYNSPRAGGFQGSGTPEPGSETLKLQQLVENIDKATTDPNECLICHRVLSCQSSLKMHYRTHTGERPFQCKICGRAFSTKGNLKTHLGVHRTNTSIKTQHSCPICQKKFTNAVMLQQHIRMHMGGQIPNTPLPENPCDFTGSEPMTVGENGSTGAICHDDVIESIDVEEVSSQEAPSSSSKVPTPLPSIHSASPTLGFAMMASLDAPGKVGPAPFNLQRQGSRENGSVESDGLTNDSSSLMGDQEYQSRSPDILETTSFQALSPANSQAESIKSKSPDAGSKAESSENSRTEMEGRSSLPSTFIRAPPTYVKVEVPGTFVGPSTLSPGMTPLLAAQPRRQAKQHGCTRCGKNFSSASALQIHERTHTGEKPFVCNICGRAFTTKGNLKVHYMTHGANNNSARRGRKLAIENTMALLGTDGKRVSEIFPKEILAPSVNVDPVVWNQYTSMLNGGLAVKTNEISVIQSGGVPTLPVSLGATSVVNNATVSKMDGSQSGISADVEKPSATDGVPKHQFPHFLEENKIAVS
Notes: 8-mer, flanks averaged, mean of replicates
GCAACTCA: -0.121
GCAAGTAA: 0.0939
AAAGGACC: -0.225
AAGAAGTG: -0.0442
GGTAGACA: -0.0117
CAAATTTG: 0.0779
CACGCTGC: -0.283
CAACCAGC: -0.269
AGAGCTGA: -0.0484
TCTTGAAA: 0.305
GAAACACC: -0.0953
AGTACTTA: 0.111
AGCCTCGG: -0.339
GTCTATCA: 0.184
AGCCTTAA: 0.00455
ACGATGGC: -0.0345
CCTGTAAA: 0.107
ACGTTCAT: 0.132
CGATTAGC: -0.0917
CAAGCTCG: -0.218
AGTCTGTG: -0.0982
AAATCACC: 0.169
GTGAGAAA: 0.121
ACGCTTCC: -0.156
ACCATCAT: 0.149

Study 2 — method: DHFR PCA, deep sequencing; sample: yeast; added: (+)-ABA 0.032 µM; baseline: wild-type fitted maximum; reading: higher = stronger binding; measurement: relative binding score
Target: ABI1, truncated, D143A, DHFR fusion (Arabidopsis thaliana)
Notes: methotrexate growth selection, single substitutions
Starting sequence: PYL1, truncated, DHFR fusion (Arabidopsis thaliana); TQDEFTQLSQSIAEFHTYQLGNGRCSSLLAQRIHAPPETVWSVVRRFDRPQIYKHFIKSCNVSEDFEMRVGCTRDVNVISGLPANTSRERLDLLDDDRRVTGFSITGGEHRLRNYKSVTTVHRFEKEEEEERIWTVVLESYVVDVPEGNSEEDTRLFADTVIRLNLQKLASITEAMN; partner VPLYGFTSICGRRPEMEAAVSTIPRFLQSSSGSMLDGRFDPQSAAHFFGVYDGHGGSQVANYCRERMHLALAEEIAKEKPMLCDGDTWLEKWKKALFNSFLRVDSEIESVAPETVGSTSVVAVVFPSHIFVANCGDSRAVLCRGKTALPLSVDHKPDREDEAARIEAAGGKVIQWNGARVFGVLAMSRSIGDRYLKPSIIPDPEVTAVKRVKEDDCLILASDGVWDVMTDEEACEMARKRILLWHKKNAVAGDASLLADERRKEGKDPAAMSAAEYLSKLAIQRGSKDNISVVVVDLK
L138Q: 1.24%
F103V: 0.358%
G148A: 0.517%
E131I: 20.9%
I12P: 2.33%
L156G: 6.07%
E38C: 5.9%
G71Y: -1.49%
T17L: -2.49%
D153Y: 0.0802%
V143Y: -4.28%
I162Q: 5.03%
R32A: 18.6%
Q31R: 5.97%
D75L: 33.2%
T160K: 3.96%
I33E: -0.412%

Study 3 — method: protein-binding microarray; form: double-stranded DNA, one strand shown; sample: in vitro; tested at: 2540 nM top; notes: 60-bp whole probe; added: salmon DNA 0.4 mg/ml; baseline: random background probes; reading: higher = stronger binding; measurement: fitted relative affinity; constant ends, left off below: GCCTAGCAC … GTCTTGATTCGCTTGACGCTGCTG
Target: Interferon regulatory factor 3, full length, phosphomimetic (IRF3, Homo sapiens, UniProt Q14653, residues 1-427, S386D/S396D/S398D/S402D/T404D/S405D)
Residues (chain): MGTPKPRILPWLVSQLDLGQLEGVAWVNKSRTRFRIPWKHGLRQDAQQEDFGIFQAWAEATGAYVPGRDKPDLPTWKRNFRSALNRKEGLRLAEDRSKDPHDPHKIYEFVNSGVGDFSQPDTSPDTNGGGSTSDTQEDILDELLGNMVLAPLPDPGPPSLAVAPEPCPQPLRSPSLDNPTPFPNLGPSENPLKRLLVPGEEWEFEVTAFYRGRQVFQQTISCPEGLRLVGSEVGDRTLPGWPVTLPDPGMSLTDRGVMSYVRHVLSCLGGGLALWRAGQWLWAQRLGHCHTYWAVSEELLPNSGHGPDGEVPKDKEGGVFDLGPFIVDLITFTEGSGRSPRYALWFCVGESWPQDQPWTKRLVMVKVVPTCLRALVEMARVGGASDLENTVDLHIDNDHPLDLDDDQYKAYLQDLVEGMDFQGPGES
CCACTTTCACTTCTCCCTTTGTGCTAG: 6.46 z-score
TCATTCCTCTCACCTCGGACTGTGCTA: 1.17 z-score
TCACCTTGGCCTCTAGGACTGTGCTAG: -0.41 z-score
TCAGTTCCCTATATAAGACTGTGCTAG: 3 z-score
TTAGGTATCCTTTTGCTTTAGTGCTAG: 6.16 z-score
GACGGTCTCCTTTTCCTGGCGTGCTAG: 4.83 z-score
TTAGGTTTCCTACGGCTTTAGTGCTAG: 1.94 z-score
TCAGGTTTCGGTTTCGGTTAGTGCTAG: 11.8 z-score
TCAGCATTCGAATTCAGACTGTGCTAG: 0.657 z-score
TGCCTTTTTTTTTTTTTCTGGTGCTAG: 1 z-score

Study 4 — target: CCNB3, cyclin fold, Cln2 fusion (human); method: yeast growth competition, sequencing; sample: yeast; notes: weak parent motif; baseline: not given; reading: higher = stronger binding; measurement: normalised enrichment score
Starting sequence: INSM1 docking peptide (human); PKAIRKLHFEDEV; partner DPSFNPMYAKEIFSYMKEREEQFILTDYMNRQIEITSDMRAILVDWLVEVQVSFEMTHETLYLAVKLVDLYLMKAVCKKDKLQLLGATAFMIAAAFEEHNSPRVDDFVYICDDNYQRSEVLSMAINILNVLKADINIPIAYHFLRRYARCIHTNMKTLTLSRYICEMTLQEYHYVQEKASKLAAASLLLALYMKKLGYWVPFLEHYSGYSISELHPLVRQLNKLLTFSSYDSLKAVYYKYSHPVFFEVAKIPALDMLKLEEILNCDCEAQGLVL
K6F: 0.159
I4W: 0.885
K2Q: 0.179
K6G: -0.284
L7P: 0.0211
E10G: 1.06
E12Q: 0.311
D11Y: 0.375
F9K: -0.111
L7M: 0.22
R5A: -0.0448
K6L: 0.657
A3Q: 0.0959
K2A: 0.344
A3N: -0.124

For quick reference, copied from above (study 1):
AGCCTTAA: 0.00455
ACGATGGC: -0.0345
CCTGTAAA: 0.107
ACGTTCAT: 0.132
CGATTAGC: -0.0917
